# Results pooled from the literature.
# Every numbered part comes from another study and shows a few of its results, in no order. Positions count from the first letter of the parent shown.
# UniProt Q07002, sequence (whole entry, looked up): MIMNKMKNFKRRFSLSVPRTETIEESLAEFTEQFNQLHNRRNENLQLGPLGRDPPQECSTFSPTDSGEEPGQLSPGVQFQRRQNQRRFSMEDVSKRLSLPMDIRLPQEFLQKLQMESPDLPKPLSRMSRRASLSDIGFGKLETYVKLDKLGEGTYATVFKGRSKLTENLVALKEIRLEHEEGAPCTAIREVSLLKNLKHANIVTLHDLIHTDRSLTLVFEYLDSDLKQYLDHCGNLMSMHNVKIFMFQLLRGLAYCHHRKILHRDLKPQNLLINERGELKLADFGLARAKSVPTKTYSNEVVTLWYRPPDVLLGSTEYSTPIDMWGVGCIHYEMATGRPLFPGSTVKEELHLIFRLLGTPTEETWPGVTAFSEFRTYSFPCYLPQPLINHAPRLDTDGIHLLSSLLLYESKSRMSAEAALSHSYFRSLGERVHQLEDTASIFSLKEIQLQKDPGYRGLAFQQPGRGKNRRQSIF
# UniProt Q8IY84, sequence (whole entry, looked up): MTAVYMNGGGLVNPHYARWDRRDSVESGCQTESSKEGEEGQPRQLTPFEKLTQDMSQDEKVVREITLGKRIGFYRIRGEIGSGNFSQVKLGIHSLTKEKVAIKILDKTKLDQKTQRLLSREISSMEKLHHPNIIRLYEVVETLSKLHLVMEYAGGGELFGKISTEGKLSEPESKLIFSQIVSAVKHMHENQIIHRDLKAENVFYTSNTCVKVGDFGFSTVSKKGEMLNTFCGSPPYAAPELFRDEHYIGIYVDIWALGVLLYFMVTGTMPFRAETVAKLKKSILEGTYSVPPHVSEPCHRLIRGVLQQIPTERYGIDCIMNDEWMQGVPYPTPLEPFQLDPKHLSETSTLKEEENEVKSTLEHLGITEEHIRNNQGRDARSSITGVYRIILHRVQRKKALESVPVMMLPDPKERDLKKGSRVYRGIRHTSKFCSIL
# UniProt Q8N4C8, sequence (whole entry, looked up): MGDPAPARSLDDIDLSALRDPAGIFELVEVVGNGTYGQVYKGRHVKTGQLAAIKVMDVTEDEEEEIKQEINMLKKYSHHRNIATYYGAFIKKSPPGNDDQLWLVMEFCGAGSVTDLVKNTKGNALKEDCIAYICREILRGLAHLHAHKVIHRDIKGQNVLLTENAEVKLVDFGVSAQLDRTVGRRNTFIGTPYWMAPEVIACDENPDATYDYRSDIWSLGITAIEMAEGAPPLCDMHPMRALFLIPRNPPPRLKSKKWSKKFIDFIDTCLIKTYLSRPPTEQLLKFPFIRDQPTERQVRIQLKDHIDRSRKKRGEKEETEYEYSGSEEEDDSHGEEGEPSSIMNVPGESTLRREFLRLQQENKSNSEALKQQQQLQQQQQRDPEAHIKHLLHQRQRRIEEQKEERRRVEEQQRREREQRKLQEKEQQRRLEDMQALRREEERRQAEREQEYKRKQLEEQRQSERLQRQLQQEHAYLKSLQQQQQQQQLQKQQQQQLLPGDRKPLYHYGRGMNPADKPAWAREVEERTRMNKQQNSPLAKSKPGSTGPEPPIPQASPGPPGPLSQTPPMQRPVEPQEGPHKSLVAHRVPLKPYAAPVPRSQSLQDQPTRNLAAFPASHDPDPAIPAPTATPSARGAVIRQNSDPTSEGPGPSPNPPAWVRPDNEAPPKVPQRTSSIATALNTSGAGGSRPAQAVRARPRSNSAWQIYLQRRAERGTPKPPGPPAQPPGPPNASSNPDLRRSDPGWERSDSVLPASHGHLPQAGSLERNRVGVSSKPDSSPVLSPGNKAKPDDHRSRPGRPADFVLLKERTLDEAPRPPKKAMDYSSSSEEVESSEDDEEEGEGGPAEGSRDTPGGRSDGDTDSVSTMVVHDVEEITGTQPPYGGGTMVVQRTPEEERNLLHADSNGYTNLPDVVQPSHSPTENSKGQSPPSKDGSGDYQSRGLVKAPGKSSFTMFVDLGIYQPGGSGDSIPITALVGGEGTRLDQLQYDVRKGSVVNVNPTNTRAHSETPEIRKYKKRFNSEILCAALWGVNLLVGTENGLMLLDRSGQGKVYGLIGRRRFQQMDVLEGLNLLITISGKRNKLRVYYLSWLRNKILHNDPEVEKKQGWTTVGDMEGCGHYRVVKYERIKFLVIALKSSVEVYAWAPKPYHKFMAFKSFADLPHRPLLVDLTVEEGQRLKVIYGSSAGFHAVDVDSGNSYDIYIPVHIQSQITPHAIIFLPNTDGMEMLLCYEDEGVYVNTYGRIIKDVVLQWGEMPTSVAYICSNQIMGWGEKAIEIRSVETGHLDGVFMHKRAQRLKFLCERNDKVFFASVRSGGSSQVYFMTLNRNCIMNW
# UniProt P10721, sequence (whole entry, looked up): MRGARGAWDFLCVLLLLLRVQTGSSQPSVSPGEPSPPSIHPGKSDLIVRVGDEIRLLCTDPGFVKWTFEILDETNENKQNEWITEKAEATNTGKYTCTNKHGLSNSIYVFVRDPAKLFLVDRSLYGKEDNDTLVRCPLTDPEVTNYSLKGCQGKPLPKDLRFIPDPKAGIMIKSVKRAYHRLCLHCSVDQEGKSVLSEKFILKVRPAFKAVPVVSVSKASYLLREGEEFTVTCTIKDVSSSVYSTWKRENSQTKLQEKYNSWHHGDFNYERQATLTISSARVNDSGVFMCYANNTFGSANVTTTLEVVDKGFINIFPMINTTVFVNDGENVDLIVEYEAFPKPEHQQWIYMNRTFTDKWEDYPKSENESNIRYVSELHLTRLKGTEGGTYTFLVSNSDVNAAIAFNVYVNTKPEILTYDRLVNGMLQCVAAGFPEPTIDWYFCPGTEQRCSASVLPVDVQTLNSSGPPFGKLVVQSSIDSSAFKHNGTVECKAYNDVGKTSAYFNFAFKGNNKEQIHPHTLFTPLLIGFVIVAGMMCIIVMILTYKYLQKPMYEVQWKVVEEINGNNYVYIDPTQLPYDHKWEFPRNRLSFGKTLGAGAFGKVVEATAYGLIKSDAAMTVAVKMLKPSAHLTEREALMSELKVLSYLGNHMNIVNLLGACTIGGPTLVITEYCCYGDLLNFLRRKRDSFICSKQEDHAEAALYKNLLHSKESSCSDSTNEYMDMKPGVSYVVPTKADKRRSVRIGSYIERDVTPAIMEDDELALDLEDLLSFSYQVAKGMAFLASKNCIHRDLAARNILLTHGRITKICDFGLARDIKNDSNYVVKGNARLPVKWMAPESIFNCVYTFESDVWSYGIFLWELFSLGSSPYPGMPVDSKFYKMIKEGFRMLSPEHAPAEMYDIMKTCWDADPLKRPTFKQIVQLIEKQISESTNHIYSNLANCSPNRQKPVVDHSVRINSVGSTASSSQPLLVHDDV
# UniProt Q15303, sequence (whole entry, looked up): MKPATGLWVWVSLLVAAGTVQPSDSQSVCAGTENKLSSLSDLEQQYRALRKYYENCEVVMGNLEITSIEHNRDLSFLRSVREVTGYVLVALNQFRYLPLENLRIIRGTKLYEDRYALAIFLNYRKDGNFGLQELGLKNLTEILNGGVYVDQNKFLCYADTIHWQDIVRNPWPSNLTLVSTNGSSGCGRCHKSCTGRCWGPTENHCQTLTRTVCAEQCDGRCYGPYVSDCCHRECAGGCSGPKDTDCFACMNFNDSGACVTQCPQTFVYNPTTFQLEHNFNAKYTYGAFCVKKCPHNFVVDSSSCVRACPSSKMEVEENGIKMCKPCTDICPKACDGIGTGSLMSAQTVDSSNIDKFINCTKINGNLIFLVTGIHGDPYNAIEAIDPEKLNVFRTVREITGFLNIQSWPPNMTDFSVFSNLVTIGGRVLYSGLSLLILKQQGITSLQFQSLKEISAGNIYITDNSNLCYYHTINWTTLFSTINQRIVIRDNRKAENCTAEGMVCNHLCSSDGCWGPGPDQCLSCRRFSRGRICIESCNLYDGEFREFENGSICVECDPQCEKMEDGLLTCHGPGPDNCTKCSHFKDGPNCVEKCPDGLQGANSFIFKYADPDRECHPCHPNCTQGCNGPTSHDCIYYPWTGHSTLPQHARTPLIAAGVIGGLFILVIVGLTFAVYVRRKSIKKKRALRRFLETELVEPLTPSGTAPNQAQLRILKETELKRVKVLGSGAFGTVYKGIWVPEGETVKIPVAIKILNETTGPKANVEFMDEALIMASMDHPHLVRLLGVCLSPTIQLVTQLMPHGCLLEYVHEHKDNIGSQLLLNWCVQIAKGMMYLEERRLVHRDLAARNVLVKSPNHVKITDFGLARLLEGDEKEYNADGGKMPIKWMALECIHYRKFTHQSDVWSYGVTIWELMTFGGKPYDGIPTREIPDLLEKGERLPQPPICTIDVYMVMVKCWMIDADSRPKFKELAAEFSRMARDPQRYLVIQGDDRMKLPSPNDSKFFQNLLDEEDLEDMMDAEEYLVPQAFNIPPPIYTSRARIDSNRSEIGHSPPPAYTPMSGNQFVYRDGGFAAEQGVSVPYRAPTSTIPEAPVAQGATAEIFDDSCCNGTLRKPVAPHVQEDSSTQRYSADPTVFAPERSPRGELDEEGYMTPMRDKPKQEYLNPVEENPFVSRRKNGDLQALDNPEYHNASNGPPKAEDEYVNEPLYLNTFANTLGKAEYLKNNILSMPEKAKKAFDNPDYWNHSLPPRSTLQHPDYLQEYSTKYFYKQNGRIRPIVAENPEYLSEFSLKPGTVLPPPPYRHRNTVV
# UniProt Q13043, sequence (whole entry, looked up): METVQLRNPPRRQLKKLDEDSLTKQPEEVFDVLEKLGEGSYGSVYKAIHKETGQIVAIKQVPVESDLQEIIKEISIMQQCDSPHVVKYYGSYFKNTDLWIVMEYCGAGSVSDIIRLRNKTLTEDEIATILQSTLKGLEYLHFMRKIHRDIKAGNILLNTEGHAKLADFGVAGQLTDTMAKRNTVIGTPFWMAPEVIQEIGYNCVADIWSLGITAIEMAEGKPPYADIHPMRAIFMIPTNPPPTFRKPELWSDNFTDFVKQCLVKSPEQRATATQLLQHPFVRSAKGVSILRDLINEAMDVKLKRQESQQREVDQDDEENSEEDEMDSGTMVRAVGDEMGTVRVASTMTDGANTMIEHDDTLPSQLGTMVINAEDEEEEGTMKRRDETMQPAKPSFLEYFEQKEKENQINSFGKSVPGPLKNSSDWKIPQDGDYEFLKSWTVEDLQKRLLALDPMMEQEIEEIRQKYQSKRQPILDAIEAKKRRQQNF

# Study 1
# SMILES: O=C1NC(=O)c2c1c1c3ccccc3[nH]c1n1cncc21
# Observed: enzyme activity
# Action: inhibitor
# Concentration: 0.5 µM
# Reference: control
target,remaining activity
"BLK (Homo sapiens, UniProt P51451)",73.9%
"Cyclin-dependent kinase 4, with cyclin D3 (CDK4, Homo sapiens, UniProt P11802)",87.1%
"PHKG1 (Homo sapiens, UniProt Q16816)",70.8%
"RPS6KA5 (Homo sapiens, UniProt O75582)",87.6%
"TSSK2 (Homo sapiens, UniProt Q96PF2)",99.1%
"AXL (Homo sapiens, UniProt P30530)",91.7%
"EPHB1 (Homo sapiens, UniProt P54762)",94%
"STK17A (Homo sapiens, UniProt Q9UEE5)",36.6%
"DYRK3 (Homo sapiens, UniProt O43781)",85.8%
"EPHA4 (Homo sapiens, UniProt P54764)",98.6%
"PDPK1 (Homo sapiens, UniProt O15530)",89%
"RPS6KA6 (Homo sapiens, UniProt Q9UK32)",33.4%
"ABL1 (Homo sapiens, UniProt P00519)",85.6%
"Cyclin-dependent kinase 6, with cyclin D3 (CDK6, Homo sapiens, UniProt Q00534)",74.3%
"WNK3 (Homo sapiens, UniProt Q9BYP7)",79.1%
"MAP4K4 (Homo sapiens, UniProt O95819)",21.2%
"CAMK2B (Homo sapiens, UniProt Q13554)",58.2%

# Study 2
# Target: CCNB2, cyclin fold, Cln2 fusion (human)
# Technique: yeast growth competition, sequencing
# Medium: yeast
# Notes: weak parent motif
# Reference: not given
# Reading: higher = stronger binding
# Starting sequence: WEE1 docking peptide (human); HKTFRKLRLFDTP
Variant,normalised enrichment score
HKTFIKLRLFDTP [R5I],0.586
HKDFRKLRLFDTP [T3D],0.154
HKTFRHLRLFDTP [K6H],0.247
HKTFRRLRLFDTP [K6R],0.668
HKTFRKLRLFDFP [T12F],0.535
HKTFRKLRLFDTH [P13H],-0.0152
HKTFRKLRLPDTP [F10P],0.818
HKTFRKLRLFDTW [P13W],0.48

# Study 3
# SMILES: c1ccc(N2CCN(Cc3nc4ccccc4[nH]3)CC2)nc1
# Technique: competition with immobilised ligand
# Concentration: 1 µM
target,observed,remaining binding
"MINK1 (Homo sapiens, UniProt Q8N4C8)",binding,100%
"NIM1K (Homo sapiens, UniProt Q8IY84)",binding,100%
"CDK11A (Homo sapiens, UniProt Q9UQ88)",binding,100%
"CSNK1E (Homo sapiens, UniProt P49674)",binding,100%
"NEK10 (Homo sapiens, UniProt Q6ZWH5)",binding,100%
"CAMK2D (Homo sapiens, UniProt Q13557)",cell-free assay,91%
"FLT3 (Homo sapiens, UniProt P36888, D835Y)",binding,100%
"ERBB4 (Homo sapiens, UniProt Q15303)",binding,95%
"CDK18 (Homo sapiens, UniProt Q07002)",binding,94%
"MAPK14 (Homo sapiens, UniProt Q16539)",binding,89%
"FLT3 (Homo sapiens, UniProt P36888, D835V)",binding,88%
"Macrophage colony-stimulating factor 1 receptor, autoinhibited (CSF1R, Homo sapiens, UniProt P07333)",cell-free assay,100%
"LIM domain kinase 1 (LIMK1, Homo sapiens, UniProt P53667)",binding,100%
"EGFR (Homo sapiens, UniProt P00533, L858R/T790M)",cell-free assay,100%
"MYLK2 (Homo sapiens, UniProt Q9H1R3)",binding,91%
"FLT1 (Homo sapiens, UniProt P17948)",cell-free assay,100%
"Aurora kinase A (AURKA, Homo sapiens, UniProt O14965)",cell-free assay,89%
"STK4 (Homo sapiens, UniProt Q13043)",binding,100%
"Ribosomal protein S6 kinase alpha-4, C-terminal kinase domain (RPS6KA4, Homo sapiens, UniProt O75676)",binding,100%
"KIT (Homo sapiens, UniProt P10721)",binding,100%
"TNNI3K (Homo sapiens, UniProt Q59H18)",cell-free assay,100%
"HIPK4 (Homo sapiens, UniProt Q8NE63)",binding,91%
"ERBB2 (Homo sapiens, UniProt P04626)",binding,78%

# Study 4
# Target: Prothrombin, mature alpha-thrombin (F2, Homo sapiens, UniProt P00734)
# Technique: aptamer microarray, sandwich
# Form: DNA with 2'F-ANA
# Medium: in vitro
# Concentration: 200 nM
# Notes: whole 15-mer aptamer, many near background
# Added: Cy3 exosite-II aptamer, 400 nM
# Reading: higher = stronger binding
# Strand: GGTTGGTGTGGTTGG
Modification,mean fluorescence intensity [a.u.]
2'F-ANA at 1 2 8 9 13 15,139
2'F-ANA at 4 6 9 11 12 13 14 15,94.8
2'F-ANA at 7 8 10 11 13 14,100
2'F-ANA at 1 2 8 9 11 12 13 14,63.9
2'F-ANA at 1 3 4 6 7 9 11 12 13 14,79.4
2'F-ANA at 2 3 4 6 9 10 11 13 14,202
2'F-ANA at 1 3 4 5 6 7 8 9 12 13 14 15,48.3
2'F-ANA at 1 8 10 12 15,75.5

# For quick reference, copied from above (study 3):
target,observed,remaining binding
"HIPK4 (Homo sapiens, UniProt Q8NE63)",binding,91%
"MAPK14 (Homo sapiens, UniProt Q16539)",binding,89%
"CDK18 (Homo sapiens, UniProt Q07002)",binding,94%
"MYLK2 (Homo sapiens, UniProt Q9H1R3)",binding,91%
"MINK1 (Homo sapiens, UniProt Q8N4C8)",binding,100%
"FLT3 (Homo sapiens, UniProt P36888, D835V)",binding,88%
"CSNK1E (Homo sapiens, UniProt P49674)",binding,100%
"Macrophage colony-stimulating factor 1 receptor, autoinhibited (CSF1R, Homo sapiens, UniProt P07333)",cell-free assay,100%
